Measured values from different studies.
Compare with care: the assays were run in different laboratories. “And” joins repeats or separate records; there may be more than shown. Numbers after ± are the reported error.

CC[C@H](C)[C@H](NC(=O)[C@H](CC(N)=O)NC(=O)[C@@H](N)CCSC)C(=O)N[C@@H](CCSC)C(=O)N[C@@H](CC(=O)O)C(=O)N[C@@H](Cc1ccccc1)C(=O)N[C@@H](CC(N)=O)C(=O)N[C@H](C(=O)N[C@@H](CCCCN)C(=O)N[C@@H](CCCCN)C(=O)N[C@@H](CC(C)C)C(=O)N[C@@H](C)C(=O)N[C@@H](C)C(=O)N[C@@H](CC(=O)O)C(=O)N[C@@H](C)C(=O)NCC(=O)N[C@H](C(=O)N[C@@H](Cc1c[nH]c2ccccc12)C(=O)N[C@@H](CC(C)C)C(=O)N[C@@H](CO)C(=O)N[C@@H](CCCNC(=N)N)C(=O)N[C@@H](C)C(=O)N[C@H](C(=O)N[C@@H](CCC(N)=O)C(=O)N[C@@H](Cc1ccccc1)C(=O)N[C@H](C(=O)N[C@@H](CCC(=O)O)C(=O)N[C@@H](CCC(=O)O)C(=O)N[C@@H](CCCCN)C(=O)N[C@@H](CC(C)C)C(=O)NCC(=O)N[C@@H](CCC(N)=O)C(=O)N[C@@H](C)C(N)=O)[C@@H](C)O)C(C)C)[C@@H](C)O)C(C)C
ΔG of binding (circular dichroism titration; 25% DOPS/75% DOPC liposomes; 50 µM, pH 7.4, 20 °C): -6.9 kcal/mol

CN1CCCNC(=O)c2cccc(c2)C(=O)NCCCN(C)CCCNc2cccc3c2C(=O)c2cccc(c2C3=O)NCCC1
body weight (mouse xenograft model; dose not given, day 10): 24 g and 26 g and 27 g

COc1ccnc(C(=O)N[C@H]2COC(=O)[C@H](Cc3ccccc3)[C@@H](OC(=O)C(C)C)[C@H](C)OC2=O)c1O
KFoc (soil adsorption; clay loam soil; pH 7.2, organic carbon 4.4 %): 1810 mL/g

CN(C)S(=O)(=O)c1ccc(S(=O)(=O)N2CCC(n3c(=O)[nH]c4ccccc43)CC2)cc1
relative body weight (mouse; dose not given, day 2; reference: day 0): 97% and 91% and 99% and 94% and 95%

Cc1ccc(C(NC(=O)c2cc(-c3ccccc3)n(-c3ccccc3)n2)c2ccncc2)cc1 (centres unmarked)
depletion (rat liver microsomes; 4 h): < 30%

O=C1c2ccc3c4ccc5c6c(ccc(c7ccc(c2c37)C(=O)N1CCN1CCCCC1)c64)C(=O)N(CCN1CCCCC1)C5=O
logD (shake flask; aqueous buffer; pH 7): 2.1

CN1CCC[C@]1(C)/C=C/S(=O)(=O)NC(=O)Nc1c2c(cc3c1CC(O)C3)CCC2 (some centres unmarked)
Cmax at first steady-state dose (human, plasma; oral, 12.5 mg twice daily of parent drug, day 14, metabolite of dosed drug): 1700 ng/mL

CCCC[C@H](NC(=O)CNC(=O)CNC(=O)[C@H](CCCCNC(=O)[C@H](CC(=O)O)NC(=O)C(C)c1ccc(CC(C)C)cc1)NC(=O)CN1CCN(CC(=O)O)CCN(CC(=O)O)CCN(CC(=O)O)CC1)C(=O)N[C@H]1CC(=O)NCCCC[C@@H](C(N)=O)NC(=O)[C@H](Cc2c[nH]c3ccccc23)NC(=O)[C@H](CCCNC(=N)N)NC(=O)[C@@H](Cc2ccccc2)NC(=O)[C@H](Cc2c[nH]cn2)NC1=O (some centres unmarked) [lutetium-177 labelled]
tumour-to-tissue ratio (C57 mice, tumour; intravenous, 0.037 MBq, 24 h; reference: lung): 28.4

CC1Cc2ccccc2N1C(=O)CN1CCN(Cc2ccccc2)CC1 (centres unmarked)
brain concentration (female NMRI mice, brain; intraperitoneal, 10 mg/kg free base, 15 min): 2020 ng/mL

COc1cnc2cccc(N3CCc4c(cc(Cn5ccnc5)cc4-c4cn(C)nc4C(F)(F)F)C3=O)c2c1
AUC(0-inf) (male CD-1 mouse, plasma; oral, 10 mg/kg): 3850 ng·h/mL

Nc1nnc(NCc2c(Cl)cccc2Oc2ccccc2)[nH]1
blood glucose (CD1 mice; ip, 3 mg/kg daily, 1 weeks; reference: normal mice): increased

O=C(Nc1cnccc1-c1ccc([18F])nc1)c1ccnc(NC(=O)C2CC2)c1
mean SUV (ex vivo gamma counting; GSK-3β transgenic mice, early-stage, caudate nucleus; intravenous, 120 min): 0.026

O=C(O)CN1CCN(CC(=O)O)CCN(CC(O)CN(CC(O)CN2CCN(CC(=O)O)CCN(CC(=O)O)CCN(CC(=O)O)CC2)C[C@H](O)[C@@H](O)[C@H](O)[C@H](O)CO)CCN(CC(=O)O)CC1 (some centres unmarked)
log K (pH-potentiometry, item: Gd2(LH-1), alcoholic OH deprotonation; 25 °C, 0.15 M NaCl): 9.24

CCC1CNC(CC)CN(C(C(=O)[O-])c2ccc(C(=O)[O-])cc2)C(CC)CN(CC(=O)[O-])C(CC)CN1.[Mn+2] (centres unmarked)
Mn uptake (ICP-MS; BALB/c mice, kidney; intravenous, 0.05 mmol/kg, 5 min; reference: injected dose): 5.16 ± 1.41%

C=C(NC(=O)c1csc(-c2nc3c(cc2O)-c2nc(cs2)C(=O)NC(C(C)O)C(=O)NC(=C(C)OC)c2nc(cs2)C(=O)NC2c4nc(cs4)C(=O)NC(COC(=O)c4c5c6c(cccc6n4O)COC(=O)C(OC4CC(C)(O)C(N(C)C)C(C)O4)C2OC5)c2nc-3cs2)n1)C(N)=O (centres unmarked)
AUC(0-inf) (ICR mice, Streptococcus pneumoniae ATCC 49169 infected, immunocompromised, blood; intravenous, 16 mg/kg/day three times daily): 1470 ng·h/mL

Cc1noc(C)c1Cn1cc(N2C(=O)CN(Cc3cccc(OS(=O)(=O)O)c3)C2=O)cn1
plasma concentration (Sprague-Dawley rat, male; oral, 10 mg/kg of parent drug, 1 h): 2400 ng/mL

O=C(CCc1ccc(CNC(C(=O)OC2CCCC2)C2CCCCC2)cn1)NO (centres unmarked)
Cmax ratio (healthy male humans, plasma; oral, 40 mg, single dose; reference: fed over fasted): 0.33

CC[C@@H]([C@H](C)O)n1ncn(-c2ccc(N3CCN(c4ccc(OC[C@@H]5CO[C@@](Cn6cncn6)(c6ccc(F)cc6F)C5)cc4)CC3)cc2)c1=O
relative translation (Trypanosoma cruzi; reporter mRNA translation, inhibitor, item: capped polyadenylated Renilla luciferase mRNA; cell-free extract; concentration not given; reference: control RNA): 126%

N=C(N)NCCC[C@@H]1NC(=O)[C@H](CO)NC(=O)[C@@H](NC(=O)[C@H](CO)NC(=O)[C@H](CO)NC(=O)[C@H](Cc2c[nH]c3ccccc23)NC(=O)CNC(=O)[C@H](CO)NC(=O)[C@@H](N)Cc2c[nH]c3ccccc23)CSSC[C@@H](C(=O)NCC(=O)O)NC(=O)[C@H](CO)NC1=O
half-life (patients, plasma; intravenous, 10 mg/kg, thrice weekly, median): 17.6 min

Cc1cc(NC(=O)[C@H](O)c2cc(F)cc(F)c2)ccc1-c1cnc(N)c(C(=O)NC(C)C)c1
AUC(0-t) (female nude mouse, plasma; oral, 100 mg/kg, single dose): 118000 ng·h/mL

CC[C@H](C)[C@@H]1NC(=O)[C@H](Cc2ccc(O)cc2)NC(=O)CCCSC[C@@H](C(=O)N(CC(=O)N[C@@H](CC(C)C)C(=O)NCC(N)=O)Cc2ccc(F)cc2)NC(=O)[C@H](CC(N)=O)NC(=O)[C@H](CCC(N)=O)NC1=O
AUC(0-inf) (healthy women, plasma; intranasal, 300 µg single dose): 0.142 ng·h/mL

CC1(C)OB(/C=C/COCC(=O)OCc2ccccc2)OC1(C)C
release yield (1H NMR; pH 7.4, 25 °C, oxidative cleavage, together with: H2O2): 90%

C=CC(=O)Nc1cc(Nc2nccc(-c3c[nH]c4ccccc34)n2)c(OC)cc1N(C)CCN(C)C
recovery (storage stability; human dried blood spot; 2 h, on ice, HQC level): 107%

CC(C)[C@H](NC(=O)[C@H](Cc1c[nH]c2ccccc12)NC(=O)[C@H](CCCNC(=N)N)NC(=O)[C@H](CCCNC(=N)N)NC(=O)[C@@H](NC(=O)[C@@H](NC(=O)[C@H](CCCNC(=N)N)NC(=O)[C@@H](NC(=O)[C@@H](NC(=O)[C@H](CCCNC(=N)N)NC(=O)[C@H](CCCNC(=N)N)NC(=O)[C@@H](NC(=O)[C@H](Cc1c[nH]c2ccccc12)NC(=O)[C@H](CCCNC(=N)N)NC(=O)[C@H](CCCNC(=N)N)NC(=O)[C@@H](NC(=O)[C@H](CCCNC(=N)N)NC(=O)[C@H](CCCNC(=N)N)NC(=O)[C@@H](NC(=O)[C@H](Cc1c[nH]c2ccccc12)NC(=O)[C@H](CCCNC(=N)N)NC(=O)[C@@H](N)CCCNC(=N)N)C(C)C)C(C)C)C(C)C)C(C)C)C(C)C)C(C)C)C(C)C)C(=O)N[C@@H](CCCNC(=N)N)C(=O)N[C@@H](CCCNC(=N)N)C(=O)O
creatinine excretion (CD1 mouse, urine; intravenous, 15 mg/kg, 16 h, [14C]-labelled compound): 15.4 µg/day/g body weight

Cc1c(Cc2cccc(OC(C)(C)C(=O)O)c2)c2ccc(C(=O)NCc3cccc(C(C)(C)C)c3)cc2n1CC1CCC1
half-life (mouse liver microsomes; 1 µM, together with: microsomes 1 mg/mL): 40 min

CCCCN1C(=O)c2cccc3c(NCCCCCN4CCOCC4)ccc(c23)C1=O
fluorescence lifetime (chloroform): 9.4 ns

C=C[C@]1(C)C[C@@H](OC(=O)CSc2ccc(NC(=O)c3ccco3)cc2)[C@]2(C)[C@H](C)CC[C@]3(CCC(=O)[C@H]32)[C@@H](C)[C@@H]1O
plasma concentration (Mycoplasma gallisepticum-infected chickens, plasma; intramuscular, 5 mg/kg, 24 h): 1.33 ng/mL and 0.0758 ng/mL and 0.301 ng/mL and 1.6 ng/mL

CN1CCC[C@]1(C)/C=C/S(=O)(=O)NC(=O)Nc1c2c(cc3c1CCC3O)CCC2 (some centres unmarked)
Cmax at first steady-state dose (human, plasma; oral, 12.5 mg twice daily of parent drug, day 14, metabolite of dosed drug): 12400 ng/mL

CN(O)C(=O)CCC(=O)NCCCN(CCCCN(CCCNC(=O)CCC(=O)N(C)O)C(=O)CCC(=O)N(C)O)C(=O)CCC(=O)N(C)O.[89Zr]
intact complex (radio-TLC; aqueous buffer; 3 d, pH 5, 37 °C, 89Zr-labelled complex, together with: DTPA 100-fold excess): 98 ± 0.4%

CCn1ncc(CN2CCCC(C(=O)c3cccc(OC(C)C)c3)C2)c1C (centres unmarked)
relative translation (Trypanosoma cruzi; reporter mRNA translation, inhibitor, item: capped polyadenylated Renilla luciferase mRNA; cell-free extract; concentration not given; reference: control RNA): 108%

CNc1cc(C)c(C(N)=O)cn1
concentration at time (Han Wistar rats, male, plasma; oral, 30 mg/kg, 3.00 h): 45 µM

Cc1cc(-c2ccc(C(=O)[C@@H]3CCCC[C@H]3C(=O)Nc3cnn4c3C(=O)NCC4)cc2)[nH]n1
cumulative recovery of radioactivity (human, faeces; oral, 200 mg, 0-120 h; reference: dose): 63.8%

Oc1ccnc(-c2cc(O)ccn2)c1.[Cl-].[Cl-].[Ru+2].c1ccc(-c2ccnc3c2ccc2c(-c4ccccc4)ccnc23)cc1.c1ccc(-c2ccnc3c2ccc2c(-c4ccccc4)ccnc23)cc1
singlet oxygen quantum yield (acetonitrile; acidic form): 0.68

CC(C)(O)c1ncc([S@](N)(=O)=NC(=O)Nc2c3c(cc4c2CCC4)CCC3)s1
subjects with gastrointestinal adverse events (healthy human subjects; oral, 100 mg, tablet, fed): 17%

C/C(N)=N/C(=N\S(=O)(=O)c1ccc(C(F)(F)F)cc1)N1C[C@H](c2ccccc2)C(c2ccc(Cl)cc2)=N1
biliary and urinary excretion (male Sprague-Dawley rat, bile and urine; intravenous, 3 mg/kg; reference: dose): < 1%

For quick reference, copied from above:
O=C(Nc1cnccc1-c1ccc([18F])nc1)c1ccnc(NC(=O)C2CC2)c1
mean SUV (ex vivo gamma counting; GSK-3β transgenic mice, early-stage, caudate nucleus; intravenous, 120 min): 0.026

O=C1c2ccc3c4ccc5c6c(ccc(c7ccc(c2c37)C(=O)N1CCN1CCCCC1)c64)C(=O)N(CCN1CCCCC1)C5=O
logD (shake flask; aqueous buffer; pH 7): 2.1

N=C(N)NCCC[C@@H]1NC(=O)[C@H](CO)NC(=O)[C@@H](NC(=O)[C@H](CO)NC(=O)[C@H](CO)NC(=O)[C@H](Cc2c[nH]c3ccccc23)NC(=O)CNC(=O)[C@H](CO)NC(=O)[C@@H](N)Cc2c[nH]c3ccccc23)CSSC[C@@H](C(=O)NCC(=O)O)NC(=O)[C@H](CO)NC1=O
half-life (patients, plasma; intravenous, 10 mg/kg, thrice weekly, median): 17.6 min
